Experimental data gathered from unrelated publications.
Every numbered part comes from another study and shows a few of its results, in no order. Values joined by “and” are separate records of one study, mostly repeats; a detail may differ.
UniProt O75417, sequence (whole entry, unmodified, looked up): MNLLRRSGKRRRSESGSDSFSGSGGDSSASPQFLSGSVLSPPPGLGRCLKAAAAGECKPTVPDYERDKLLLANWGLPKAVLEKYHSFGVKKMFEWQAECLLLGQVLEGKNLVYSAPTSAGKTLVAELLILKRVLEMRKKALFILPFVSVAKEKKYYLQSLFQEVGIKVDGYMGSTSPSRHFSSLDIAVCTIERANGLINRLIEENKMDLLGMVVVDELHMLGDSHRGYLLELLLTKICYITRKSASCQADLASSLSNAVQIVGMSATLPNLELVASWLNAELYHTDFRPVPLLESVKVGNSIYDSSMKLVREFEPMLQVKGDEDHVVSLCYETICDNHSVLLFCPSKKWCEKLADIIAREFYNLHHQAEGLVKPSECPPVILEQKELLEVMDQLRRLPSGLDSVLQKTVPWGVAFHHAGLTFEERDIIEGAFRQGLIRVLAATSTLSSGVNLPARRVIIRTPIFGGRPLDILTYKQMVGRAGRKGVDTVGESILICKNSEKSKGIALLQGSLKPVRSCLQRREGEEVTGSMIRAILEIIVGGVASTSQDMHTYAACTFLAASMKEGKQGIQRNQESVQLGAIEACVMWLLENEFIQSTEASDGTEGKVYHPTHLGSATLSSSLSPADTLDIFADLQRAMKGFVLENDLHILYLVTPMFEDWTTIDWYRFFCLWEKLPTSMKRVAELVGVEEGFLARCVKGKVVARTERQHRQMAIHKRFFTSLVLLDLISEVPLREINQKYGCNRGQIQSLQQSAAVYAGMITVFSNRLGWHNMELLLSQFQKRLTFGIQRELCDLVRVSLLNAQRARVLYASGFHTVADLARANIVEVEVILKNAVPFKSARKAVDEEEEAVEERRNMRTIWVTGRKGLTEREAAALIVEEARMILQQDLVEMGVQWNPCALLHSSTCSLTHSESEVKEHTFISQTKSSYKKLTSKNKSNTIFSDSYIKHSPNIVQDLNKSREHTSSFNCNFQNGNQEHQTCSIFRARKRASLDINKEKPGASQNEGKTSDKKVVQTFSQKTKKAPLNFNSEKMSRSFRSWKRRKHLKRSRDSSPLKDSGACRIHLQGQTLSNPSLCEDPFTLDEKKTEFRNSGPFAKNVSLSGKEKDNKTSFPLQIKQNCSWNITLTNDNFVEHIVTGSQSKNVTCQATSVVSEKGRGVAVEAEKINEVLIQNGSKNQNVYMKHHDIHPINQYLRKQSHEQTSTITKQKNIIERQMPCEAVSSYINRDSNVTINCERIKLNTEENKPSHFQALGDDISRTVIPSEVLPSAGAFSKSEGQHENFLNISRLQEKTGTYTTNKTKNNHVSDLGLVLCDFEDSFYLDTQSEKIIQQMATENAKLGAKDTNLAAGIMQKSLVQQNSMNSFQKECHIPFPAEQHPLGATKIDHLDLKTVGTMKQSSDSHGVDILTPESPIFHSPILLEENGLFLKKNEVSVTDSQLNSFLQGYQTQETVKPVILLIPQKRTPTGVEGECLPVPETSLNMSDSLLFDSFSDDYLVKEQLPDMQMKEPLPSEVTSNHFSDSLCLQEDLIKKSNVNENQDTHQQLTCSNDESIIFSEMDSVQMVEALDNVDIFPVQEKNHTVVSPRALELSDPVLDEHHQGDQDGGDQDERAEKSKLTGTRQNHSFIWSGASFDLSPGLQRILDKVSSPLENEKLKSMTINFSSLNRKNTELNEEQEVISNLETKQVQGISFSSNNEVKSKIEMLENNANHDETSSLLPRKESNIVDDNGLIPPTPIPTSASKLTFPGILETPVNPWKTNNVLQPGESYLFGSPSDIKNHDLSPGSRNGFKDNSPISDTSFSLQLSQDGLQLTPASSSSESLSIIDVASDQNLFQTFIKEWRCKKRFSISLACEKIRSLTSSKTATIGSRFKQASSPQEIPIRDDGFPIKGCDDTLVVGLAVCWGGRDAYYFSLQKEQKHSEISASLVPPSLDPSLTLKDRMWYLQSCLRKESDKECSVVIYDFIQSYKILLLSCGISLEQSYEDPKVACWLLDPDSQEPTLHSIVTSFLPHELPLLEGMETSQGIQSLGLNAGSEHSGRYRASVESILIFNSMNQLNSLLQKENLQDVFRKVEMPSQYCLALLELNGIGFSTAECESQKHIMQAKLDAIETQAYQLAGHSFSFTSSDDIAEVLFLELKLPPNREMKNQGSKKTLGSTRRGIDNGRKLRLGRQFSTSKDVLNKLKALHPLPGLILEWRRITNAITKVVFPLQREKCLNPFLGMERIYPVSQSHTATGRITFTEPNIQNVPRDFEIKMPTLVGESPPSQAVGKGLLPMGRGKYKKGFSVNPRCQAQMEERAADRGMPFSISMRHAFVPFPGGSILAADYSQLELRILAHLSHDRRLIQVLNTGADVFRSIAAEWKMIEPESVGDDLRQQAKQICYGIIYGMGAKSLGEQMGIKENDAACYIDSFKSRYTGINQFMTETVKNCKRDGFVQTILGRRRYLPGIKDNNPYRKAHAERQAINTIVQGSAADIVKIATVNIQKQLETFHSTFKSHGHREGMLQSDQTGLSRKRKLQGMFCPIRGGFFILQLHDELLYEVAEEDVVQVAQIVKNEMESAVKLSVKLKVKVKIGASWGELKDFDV
UniProt Q8TF76, sequence (whole entry, looked up): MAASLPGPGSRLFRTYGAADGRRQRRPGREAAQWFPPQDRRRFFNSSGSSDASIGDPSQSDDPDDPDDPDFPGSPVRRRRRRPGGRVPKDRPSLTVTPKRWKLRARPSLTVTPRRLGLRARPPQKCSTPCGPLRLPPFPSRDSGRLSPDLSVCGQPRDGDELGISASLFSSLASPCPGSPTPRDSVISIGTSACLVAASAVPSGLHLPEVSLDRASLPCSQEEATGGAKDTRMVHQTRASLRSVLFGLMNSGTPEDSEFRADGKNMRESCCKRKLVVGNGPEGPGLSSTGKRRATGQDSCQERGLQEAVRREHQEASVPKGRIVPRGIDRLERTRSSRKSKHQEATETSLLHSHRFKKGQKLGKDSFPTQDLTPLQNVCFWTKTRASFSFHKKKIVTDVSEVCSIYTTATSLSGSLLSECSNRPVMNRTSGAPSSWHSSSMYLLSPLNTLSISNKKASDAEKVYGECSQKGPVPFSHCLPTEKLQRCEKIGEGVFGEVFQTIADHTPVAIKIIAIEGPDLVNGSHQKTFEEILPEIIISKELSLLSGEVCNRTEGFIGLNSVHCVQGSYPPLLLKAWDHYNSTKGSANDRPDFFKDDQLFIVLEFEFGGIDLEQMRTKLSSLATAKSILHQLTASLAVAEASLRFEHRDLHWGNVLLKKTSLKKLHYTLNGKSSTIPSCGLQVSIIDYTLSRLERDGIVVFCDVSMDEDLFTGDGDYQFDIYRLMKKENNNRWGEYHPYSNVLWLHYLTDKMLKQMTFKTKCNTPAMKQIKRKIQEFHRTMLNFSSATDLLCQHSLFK
UniProt Q9UQM7, sequence (whole entry, looked up): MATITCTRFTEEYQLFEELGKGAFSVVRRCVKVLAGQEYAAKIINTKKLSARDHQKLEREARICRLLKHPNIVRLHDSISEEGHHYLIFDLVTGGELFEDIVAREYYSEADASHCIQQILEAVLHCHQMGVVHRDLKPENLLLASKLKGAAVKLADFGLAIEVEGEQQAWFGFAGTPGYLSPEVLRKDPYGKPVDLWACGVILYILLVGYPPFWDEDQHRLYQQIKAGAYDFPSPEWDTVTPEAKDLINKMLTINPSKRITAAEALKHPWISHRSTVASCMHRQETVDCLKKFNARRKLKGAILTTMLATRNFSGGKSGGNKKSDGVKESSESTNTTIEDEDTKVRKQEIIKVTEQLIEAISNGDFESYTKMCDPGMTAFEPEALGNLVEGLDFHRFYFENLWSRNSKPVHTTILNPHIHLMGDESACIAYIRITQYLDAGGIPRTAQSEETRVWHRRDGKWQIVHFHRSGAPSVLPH
UniProt O43318, sequence (whole entry, looked up): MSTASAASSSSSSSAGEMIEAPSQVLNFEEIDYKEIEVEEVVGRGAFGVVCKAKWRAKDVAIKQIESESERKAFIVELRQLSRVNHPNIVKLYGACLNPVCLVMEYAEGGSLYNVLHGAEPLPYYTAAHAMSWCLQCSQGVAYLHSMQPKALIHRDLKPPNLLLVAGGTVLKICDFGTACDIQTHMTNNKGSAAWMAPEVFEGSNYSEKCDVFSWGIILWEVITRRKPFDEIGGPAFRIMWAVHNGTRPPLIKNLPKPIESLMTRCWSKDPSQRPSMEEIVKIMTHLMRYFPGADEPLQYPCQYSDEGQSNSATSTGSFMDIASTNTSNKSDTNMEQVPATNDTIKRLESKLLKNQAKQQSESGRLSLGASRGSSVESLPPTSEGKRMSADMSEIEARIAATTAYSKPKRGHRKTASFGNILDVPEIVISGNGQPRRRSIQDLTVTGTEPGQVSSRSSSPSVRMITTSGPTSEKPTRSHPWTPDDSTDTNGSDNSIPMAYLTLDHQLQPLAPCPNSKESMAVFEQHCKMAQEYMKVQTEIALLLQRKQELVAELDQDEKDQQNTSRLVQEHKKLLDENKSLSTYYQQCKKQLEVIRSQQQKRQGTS

Sample 1
Target: Eukaryotic initiation factor 4A-III (Homo sapiens, UniProt P38919)
UniProt P38919, sequence (whole entry, looked up): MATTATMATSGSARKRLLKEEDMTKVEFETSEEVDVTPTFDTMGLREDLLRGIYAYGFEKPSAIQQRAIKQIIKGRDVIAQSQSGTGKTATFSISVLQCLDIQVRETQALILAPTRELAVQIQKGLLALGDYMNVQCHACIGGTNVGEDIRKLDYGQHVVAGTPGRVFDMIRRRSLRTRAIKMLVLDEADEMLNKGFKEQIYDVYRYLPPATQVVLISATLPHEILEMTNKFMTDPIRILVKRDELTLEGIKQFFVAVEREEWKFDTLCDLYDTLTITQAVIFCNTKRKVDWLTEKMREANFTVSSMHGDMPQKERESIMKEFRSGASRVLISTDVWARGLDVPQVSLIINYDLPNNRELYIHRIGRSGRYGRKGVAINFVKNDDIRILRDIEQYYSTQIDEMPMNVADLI
Effect on: RNA clamping
Technique: fluorescence polarization
Concentration: concentration not given
Notes: mean of two replicates
Together with: FAM-labelled poly r(AG)8 RNA
SMILES | fluorescence polarization change [mP]
COC(=O)[C@H]1C(=O)[C@@]2(O)c3c(OC)cc(OC)cc3O[C@@]2(c2ccc(OC)cc2)[C@@H]1c1ccccc1 | 28.2
COc1ccc([C@@]23Oc4cc(OC)cc(OC)c4[C@@]24NC(C)=N[C@@]4(O)[C@H](C(=O)N(C)C)[C@H]3c2ccccc2)cc1 | 64.2
COC(=O)[C@H]1[C@H](c2ccccc2)[C@]2(c3ccc(OC)cc3)Oc3cc(OC)cc(OC)c3[C@@]23OC(c2ccccc2)=N[C@@]13O | 0.4
COc1cc(OC)c2c(c1)O[C@@]1(c3ccc(Br)cc3)[C@H](c3ccccc3)C[C@@H](O)[C@@]21O | 28.2
COC(=O)[C@@H]1[C@@H](c2ccccc2)[C@]2(c3ccc(OC)cc3)Oc3cc(OC)cc(OC)c3[C@@]23OC(c2ccc(OC)cc2)=N[C@@]13O | 3.7
COC(=O)[C@@H]1[C@@H](c2ccccc2)[C@]2(c3ccc(OC)cc3)Oc3cc(OC)cc(OC)c3[C@@]23OC(c2ccc(F)cc2)=N[C@@]13O | 17.9
COC(=O)Cc1nc2c(c(=O)[nH]1)[C@@H](c1ccccc1)[C@]1(c3ccc(OC)cc3)Oc3cc(OC)cc(OC)c3[C@]21O | 20.9

Sample 2
SMILES: N/C(=N\[N+](=O)[O-])N/N=C\c1ccc(-c2cccc([N+](=O)[O-])c2)o1
Effect on: enzyme activity
Mode: inhibitor
Concentration: 0.5 µM
Reference: control
target | remaining activity
Calcium/calmodulin-dependent protein kinase type II subunit alpha (CAMK2A, Homo sapiens, UniProt Q9UQM7) | 100%
Serine/threonine-protein kinase haspin (HASPIN, Homo sapiens, UniProt Q8TF76) | 89.1%
Mitogen-activated protein kinase kinase kinase 7 (MAP3K7, Homo sapiens, UniProt O43318) | 91.5%
Tyrosine-protein kinase SYK (SYK, Homo sapiens, UniProt P43405) | 91.8%
Aurora kinase B (AURKB, Homo sapiens, UniProt Q96GD4) | 99.1%
Cyclin-dependent kinase 6, with cyclin D1 (CDK6, Homo sapiens, UniProt Q00534) | 100%
High affinity nerve growth factor receptor (NTRK1, Homo sapiens, UniProt P04629) | 96%
Serine/threonine-protein kinase 3 (STK3, Homo sapiens, UniProt Q13188) | 100%

Other studies, line by line
Compound | target | test | setting | scale | endpoint | value
CNC(=O)c1cc(C(=O)NC2CC2)cn(Cc2ccccc2)c1=O | Beta-3 adrenergic receptor (ADRB3, Homo sapiens, UniProt P13945) | binding, radioligand binding | 10 µM |  | inhibition | 18.6%
C[C@]12CC[C@H](O)C[C@@H]1CC[C@@H]1[C@@H]2CC[C@]2(C)C(=O)CC[C@@H]12 | DNA polymerase theta, ATPase domain (POLQ, Homo sapiens, UniProt O75417) | enzyme activity, inhibitor | 77 µM | reference: untreated | remaining activity | 80.4% and 99.6%
O=C(NCc1ncc(C(F)(F)F)cc1Cl)c1ccc2c(c1)C1(CCS(=O)(=O)CC1)[C@@H](C1CC1)N2S(=O)(=O)c1ccc(F)cc1 | Ribosomal protein S6 kinase alpha-4, N-terminal kinase domain (RPS6KA4, Homo sapiens, UniProt O75676) | cell-free assay, competition with immobilised ligand | 1 µM |  | remaining binding | 96%
Cc1c(N2CCNCC2)nc2ccc(Br)cc2c1C(=O)NC[C@H](CCC(=O)O)c1ccccc1Cl | 5-hydroxytryptamine receptor 2B (HTR2B, Homo sapiens, UniProt P41595) | ligand displacement | 10 µM |  | inhibition | 31%
COc1ccc2c(c1)O[C@@H](c1ccc(OC)c(OC)c1)C[C@H]2NC(=O)C1(c2ccc3c(c2)OC(F)(F)O3)CC1 | Cyclin-dependent kinase 2 homolog (CRK2, Plasmodium falciparum, UniProt P61075) | cell-free assay, competition with immobilised ligand | 1 µM |  | remaining binding | 84%

A few entries again (other studies, line by line):
Compound | target | test | setting | scale | endpoint | value
CNC(=O)c1cc(C(=O)NC2CC2)cn(Cc2ccccc2)c1=O | Beta-3 adrenergic receptor (ADRB3, Homo sapiens, UniProt P13945) | binding, radioligand binding | 10 µM |  | inhibition | 18.6%
C[C@]12CC[C@H](O)C[C@@H]1CC[C@@H]1[C@@H]2CC[C@]2(C)C(=O)CC[C@@H]12 | DNA polymerase theta, ATPase domain (POLQ, Homo sapiens, UniProt O75417) | enzyme activity, inhibitor | 77 µM | reference: untreated | remaining activity | 80.4% and 99.6%
